Published values collected from several papers.
Numbered parts are unrelated; each lists some results of a single study. Values joined by “and” are separate records of one study, mostly repeats; a detail may differ.
Chain of UniProt Q8NG66 (whole entry, looked up): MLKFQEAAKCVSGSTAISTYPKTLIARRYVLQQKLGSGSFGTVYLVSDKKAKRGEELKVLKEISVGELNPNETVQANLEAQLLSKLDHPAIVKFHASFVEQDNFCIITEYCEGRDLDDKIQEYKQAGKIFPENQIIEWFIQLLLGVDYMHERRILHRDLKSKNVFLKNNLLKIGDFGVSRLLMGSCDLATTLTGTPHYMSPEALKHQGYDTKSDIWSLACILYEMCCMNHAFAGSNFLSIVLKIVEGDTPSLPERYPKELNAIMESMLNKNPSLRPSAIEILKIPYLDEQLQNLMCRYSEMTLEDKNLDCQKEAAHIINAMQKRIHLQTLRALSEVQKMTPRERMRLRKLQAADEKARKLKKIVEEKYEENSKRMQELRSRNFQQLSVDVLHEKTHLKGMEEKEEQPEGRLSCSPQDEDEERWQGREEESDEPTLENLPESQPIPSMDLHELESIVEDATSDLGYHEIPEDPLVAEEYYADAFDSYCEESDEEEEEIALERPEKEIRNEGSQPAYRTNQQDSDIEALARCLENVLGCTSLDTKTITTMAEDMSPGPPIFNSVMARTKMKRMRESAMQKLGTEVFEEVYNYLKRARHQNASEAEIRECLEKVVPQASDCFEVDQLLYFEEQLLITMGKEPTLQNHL
Chain of UniProt Q9UBE8 (whole entry, looked up): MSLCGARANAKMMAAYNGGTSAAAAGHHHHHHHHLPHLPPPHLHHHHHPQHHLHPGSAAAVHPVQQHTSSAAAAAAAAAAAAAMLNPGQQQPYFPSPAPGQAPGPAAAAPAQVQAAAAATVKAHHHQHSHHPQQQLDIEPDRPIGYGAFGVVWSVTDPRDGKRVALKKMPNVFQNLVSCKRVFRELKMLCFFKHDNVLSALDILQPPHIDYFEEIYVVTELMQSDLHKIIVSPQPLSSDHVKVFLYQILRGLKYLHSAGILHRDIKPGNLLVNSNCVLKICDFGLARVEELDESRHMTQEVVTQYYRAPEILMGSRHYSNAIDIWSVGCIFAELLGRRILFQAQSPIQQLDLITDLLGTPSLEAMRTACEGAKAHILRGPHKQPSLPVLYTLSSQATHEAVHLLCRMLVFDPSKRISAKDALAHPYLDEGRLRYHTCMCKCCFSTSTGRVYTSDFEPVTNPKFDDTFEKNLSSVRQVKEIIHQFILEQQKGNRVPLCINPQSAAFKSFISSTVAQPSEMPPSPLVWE
Chain of UniProt O00506 (whole entry, looked up): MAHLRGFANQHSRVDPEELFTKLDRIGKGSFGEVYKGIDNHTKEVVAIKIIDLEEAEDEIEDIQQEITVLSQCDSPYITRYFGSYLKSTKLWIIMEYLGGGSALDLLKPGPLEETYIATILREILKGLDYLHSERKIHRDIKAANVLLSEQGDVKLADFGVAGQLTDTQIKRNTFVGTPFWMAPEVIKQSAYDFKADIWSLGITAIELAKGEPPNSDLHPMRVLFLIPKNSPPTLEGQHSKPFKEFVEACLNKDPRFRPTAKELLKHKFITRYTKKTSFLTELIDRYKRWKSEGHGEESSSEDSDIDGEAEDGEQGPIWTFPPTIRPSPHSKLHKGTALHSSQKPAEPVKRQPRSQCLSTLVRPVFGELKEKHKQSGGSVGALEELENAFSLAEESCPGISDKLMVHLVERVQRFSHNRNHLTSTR
Chain of UniProt P27448 (whole entry, looked up): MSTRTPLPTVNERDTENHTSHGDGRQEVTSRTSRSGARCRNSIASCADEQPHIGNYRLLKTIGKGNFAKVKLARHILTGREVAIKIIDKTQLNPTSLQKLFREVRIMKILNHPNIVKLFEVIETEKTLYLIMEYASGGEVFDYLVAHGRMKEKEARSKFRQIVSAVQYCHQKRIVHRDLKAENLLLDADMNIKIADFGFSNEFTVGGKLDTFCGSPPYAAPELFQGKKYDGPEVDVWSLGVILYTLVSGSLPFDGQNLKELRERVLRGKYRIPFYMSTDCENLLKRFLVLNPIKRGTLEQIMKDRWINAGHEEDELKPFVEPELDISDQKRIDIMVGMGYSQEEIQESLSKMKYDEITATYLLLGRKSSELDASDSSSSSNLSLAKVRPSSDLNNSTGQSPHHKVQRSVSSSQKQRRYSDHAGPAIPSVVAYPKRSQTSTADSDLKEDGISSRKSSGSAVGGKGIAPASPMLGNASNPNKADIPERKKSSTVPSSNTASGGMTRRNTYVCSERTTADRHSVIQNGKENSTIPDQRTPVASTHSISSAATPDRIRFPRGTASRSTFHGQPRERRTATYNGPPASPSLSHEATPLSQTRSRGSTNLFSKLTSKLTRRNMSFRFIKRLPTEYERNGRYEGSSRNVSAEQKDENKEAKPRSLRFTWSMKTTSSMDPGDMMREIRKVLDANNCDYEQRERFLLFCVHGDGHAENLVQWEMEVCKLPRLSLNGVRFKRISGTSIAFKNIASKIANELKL
Chain of UniProt Q08881 (whole entry, looked up): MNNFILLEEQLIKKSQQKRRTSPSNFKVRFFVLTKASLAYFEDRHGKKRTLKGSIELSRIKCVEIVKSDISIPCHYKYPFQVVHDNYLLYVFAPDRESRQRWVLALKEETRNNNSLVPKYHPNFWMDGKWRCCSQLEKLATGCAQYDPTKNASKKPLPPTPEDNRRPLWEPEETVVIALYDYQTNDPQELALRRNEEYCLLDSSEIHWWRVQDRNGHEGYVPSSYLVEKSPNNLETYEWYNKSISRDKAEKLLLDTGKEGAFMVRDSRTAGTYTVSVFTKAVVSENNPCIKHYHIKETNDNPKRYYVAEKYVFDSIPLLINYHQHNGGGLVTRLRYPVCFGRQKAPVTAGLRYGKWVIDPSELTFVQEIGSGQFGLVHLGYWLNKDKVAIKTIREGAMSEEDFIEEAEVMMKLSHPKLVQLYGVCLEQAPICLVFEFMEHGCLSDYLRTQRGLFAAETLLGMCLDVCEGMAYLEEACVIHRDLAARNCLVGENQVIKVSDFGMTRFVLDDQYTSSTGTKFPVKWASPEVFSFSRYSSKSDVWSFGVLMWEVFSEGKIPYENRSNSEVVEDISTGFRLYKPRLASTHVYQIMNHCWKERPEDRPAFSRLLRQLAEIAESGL
Chain of UniProt P09769 (whole entry, looked up): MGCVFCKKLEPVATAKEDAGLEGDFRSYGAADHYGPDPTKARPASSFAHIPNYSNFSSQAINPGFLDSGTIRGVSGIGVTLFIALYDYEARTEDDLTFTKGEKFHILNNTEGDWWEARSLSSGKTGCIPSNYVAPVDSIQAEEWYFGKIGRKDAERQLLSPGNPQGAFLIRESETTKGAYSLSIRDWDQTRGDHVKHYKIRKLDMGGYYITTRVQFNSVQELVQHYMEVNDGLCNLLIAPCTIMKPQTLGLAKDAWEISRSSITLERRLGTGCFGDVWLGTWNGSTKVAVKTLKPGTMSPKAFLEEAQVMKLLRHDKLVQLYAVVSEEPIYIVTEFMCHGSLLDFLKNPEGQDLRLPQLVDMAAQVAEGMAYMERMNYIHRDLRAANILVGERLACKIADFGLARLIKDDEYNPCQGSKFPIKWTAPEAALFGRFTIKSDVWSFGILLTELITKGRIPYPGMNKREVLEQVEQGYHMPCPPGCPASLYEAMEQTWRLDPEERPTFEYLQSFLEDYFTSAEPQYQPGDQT

Series 1
Structure (SMILES): CC[C@@H](C)c1nc2cc(Nc3ccnc4ccc(S(=O)(=O)C(C)C)cc34)ccc2s1.Cl
Method: CCK-8
It gave 87.2% and 63.3% and 109% and 65.5% and 111% for survival (L929 RIPK3-/- reexpressing RIPK3 K51A; 25 µM, together with: zVAD).
L929 RIPK3-/- reexpressing RIPK3 K51A/R69H; 1.563 µM, together with: zVAD — survival: 102% and 87.8% and 91.6% and 90.1%.
For L929 RIPK3-/- reexpressing RIPK3 K51A/R69H; 6.25 µM: survival read 99.7% and 89.4% and 98.2% and 92.6% and 91.3%.
L929 RIPK3-/- reexpressing RIPK3 K51A/R69H; 3.125 µM, together with: zVAD — survival: 104% and 90.4% and 91.1% and 102% and 93.5%.
For L929 RIPK3-/- reexpressing RIPK3 K51A/R69H; 12.5 µM, together with: zVAD: survival read 99.1% and 96.4% and 94.7% and 95.9%.

Series 2
SMILES: O=C1NC(=O)c2c1c1c3ccccc3n3c1c1c2c2ccccc2n1[C@H]1CC[C@@H]3O1
Observed: enzyme activity
Action: inhibitor
Concentration: 0.5 µM
Baseline: control
For Tyrosine-protein kinase ITK/TSK (ITK, Homo sapiens, UniProt Q08881): remaining activity read 8.29%.
For Cyclin-dependent kinase 3, with cyclin E (CDK3, Homo sapiens, UniProt Q00526): remaining activity read 71.5%.
Serine/threonine-protein kinase Nek11 (NEK11, Homo sapiens, UniProt Q8NG66) — remaining activity: 60.6%.
It gave 2.68% for remaining activity (Serine/threonine-protein kinase N1 (PKN1, Homo sapiens, UniProt Q16512)).
The remaining activity was 84% (Serine/threonine-protein kinase MRCK alpha (CDC42BPA, Homo sapiens, UniProt Q5VT25)).
The remaining activity was 34.4% (Serine/threonine-protein kinase 25 (STK25, Homo sapiens, UniProt O00506)).
PAS domain-containing serine/threonine-protein kinase (PASK, Homo sapiens, UniProt Q96RG2) — remaining activity: 43.3%.
Insulin receptor (INSR, Homo sapiens, UniProt P06213) — remaining activity: 17.2%.
The remaining activity was 63.9% (RAC-alpha serine/threonine-protein kinase (AKT1, Homo sapiens, UniProt P31749)).
It gave 69.5% for remaining activity (Proto-oncogene tyrosine-protein kinase Src (SRC, Homo sapiens, UniProt P12931)).
The remaining activity was 30.9% (Tyrosine-protein kinase Fgr (FGR, Homo sapiens, UniProt P09769)).
For Homeodomain-interacting protein kinase 1 (HIPK1, Homo sapiens, UniProt Q86Z02): remaining activity read 93.6%.
It gave 5.39% for remaining activity (Tyrosine-protein kinase Fer (FER, Homo sapiens, UniProt P16591)).
ALK tyrosine kinase receptor (ALK, Homo sapiens, UniProt Q9UM73) — remaining activity: 36.9%.
For Serine/threonine-protein kinase NLK (NLK, Homo sapiens, UniProt Q9UBE8): remaining activity read 74.1%.
For Megakaryocyte-associated tyrosine-protein kinase (MATK, Homo sapiens, UniProt P42679): remaining activity read 91.7%.
LIM domain kinase 1 (LIMK1, Homo sapiens, UniProt P53667) — remaining activity: 49.3%.
It gave 24.5% for remaining activity (Serine/threonine-protein kinase TAO3 (TAOK3, Homo sapiens, UniProt Q9H2K8)).
It gave 59.9% for remaining activity (Tyrosine-protein kinase Fyn (FYN, Homo sapiens, UniProt P06241)).
It gave 8.53% for remaining activity (MAP/microtubule affinity-regulating kinase 3 (MARK3, Homo sapiens, UniProt P27448)).
The remaining activity was 17.5% (cAMP-dependent protein kinase catalytic subunit PRKX (PRKX, Homo sapiens, UniProt P51817)).
Vascular endothelial growth factor receptor 3 (FLT4, Homo sapiens, UniProt P35916) — remaining activity: 4.97%.

Series 3
Target: Calcium/calmodulin-dependent protein kinase type II subunit alpha (CAMK2A, Homo sapiens, UniProt Q9UQM7)
Chain of UniProt Q9UQM7 (whole entry, looked up): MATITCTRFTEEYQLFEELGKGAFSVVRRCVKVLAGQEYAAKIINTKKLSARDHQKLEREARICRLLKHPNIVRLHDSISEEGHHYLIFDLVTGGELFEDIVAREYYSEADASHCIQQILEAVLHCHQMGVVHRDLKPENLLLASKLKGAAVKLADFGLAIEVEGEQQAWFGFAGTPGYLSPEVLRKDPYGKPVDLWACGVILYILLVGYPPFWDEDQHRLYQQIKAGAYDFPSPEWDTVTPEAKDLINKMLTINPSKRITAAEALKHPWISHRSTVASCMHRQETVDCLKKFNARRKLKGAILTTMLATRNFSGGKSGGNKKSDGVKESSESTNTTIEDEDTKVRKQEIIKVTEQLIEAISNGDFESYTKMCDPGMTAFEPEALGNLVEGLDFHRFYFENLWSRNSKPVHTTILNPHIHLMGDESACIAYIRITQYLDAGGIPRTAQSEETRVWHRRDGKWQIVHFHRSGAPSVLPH
Observed: enzyme activity
Action: inhibitor
Concentration: 10 µM
For `CN1C2CC(OC(=O)C(CO)c3ccccc3)CC1C(O)C2` (stereo not drawn), the inhibition was 9%.
With `CC(=O)O[C@@]12CO[C@@H]1C[C@@H](O)[C@@]1(C)C(=O)[C@H](O)C3=C(C)[C@@H](OC(=O)[C@H](O)[C@@H](NC(=O)c4ccccc4)c4ccccc4)C[C@@](O)([C@@H](OC(=O)c4ccccc4)[C@H]21)C3(C)C` the inhibition was -40%.
With `C=C1CC[C@H]2[C@@H](/C=C(/C)C(=O)[C@@]3(O)C[C@H](C)[C@H](O)[C@@H]3[C@H]1O)C2(C)C` the inhibition was 11%.
`CCC1CCC(=O)O1` (stereo not drawn) gave an inhibition of 4%.
For `CC(Cc1ccc(O)cc1)NCC(O)c1cc(O)cc(O)c1` (stereo not drawn), the inhibition was -4%.
With `O=c1cc(O)c2ccccc2o1` the inhibition was -12%.
With `CC(C)(O)CC[C@@H](O)[C@](C)(O)[C@H]1CC[C@@]2(O)C3=CC(=O)[C@@H]4C[C@@H](O)[C@@H](O)C[C@]4(C)[C@H]3[C@H](O)C[C@]12C` the inhibition was -14%.
The inhibition of `O=C(O)COc1ccc(Cl)cc1Cl` is reported as -8%.
With `C[C@]12CC[C@H]3[C@@H](CC[C@]4(O)C[C@@H](O)CC[C@]34C=O)[C@@]1(O)CC[C@@H]2C1=CC(=O)OC1` the inhibition was -50%.

Series 4
Target: Beta-1 adrenergic receptor (ADRB1, Homo sapiens, UniProt P08588)
Chain of UniProt P08588 (whole entry, looked up): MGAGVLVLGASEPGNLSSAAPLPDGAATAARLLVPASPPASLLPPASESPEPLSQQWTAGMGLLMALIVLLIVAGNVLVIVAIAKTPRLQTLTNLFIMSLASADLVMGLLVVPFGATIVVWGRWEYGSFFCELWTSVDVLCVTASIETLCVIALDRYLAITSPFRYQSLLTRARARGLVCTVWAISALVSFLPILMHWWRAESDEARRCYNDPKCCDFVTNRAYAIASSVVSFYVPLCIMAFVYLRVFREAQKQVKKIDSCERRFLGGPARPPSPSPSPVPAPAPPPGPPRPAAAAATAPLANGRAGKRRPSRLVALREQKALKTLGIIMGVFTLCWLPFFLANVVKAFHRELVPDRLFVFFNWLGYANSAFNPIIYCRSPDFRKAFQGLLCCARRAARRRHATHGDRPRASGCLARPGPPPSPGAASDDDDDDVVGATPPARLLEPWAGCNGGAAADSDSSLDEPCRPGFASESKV
Action: antagonist
The IC50 of `CNCC(O)c1ccc(O)c(OC)c1` (stereo not drawn) is reported as no less than 100 µM.
`Cn1c(N2CCNCC2)cc(=O)n(C)c1=O` gave an IC50 of no less than 100 µM.
The IC50 of `c1cc(N2CCNCC2)c2cc[nH]c2c1` is reported as no less than 100 µM.
With `CC(Cc1ccccc1)NCCN1CCOCC1` (stereo not drawn) the IC50 was no less than 100 µM.

Series 5
Cell line: mouse MPNST tumor cells
Method: high-content immunofluorescence imaging
Refers to: nuclear SOX9
Concentration: 10 µM
Time: 12 h
Notes: mean of 2 replicates
Baseline: DMSO control
Reading: higher = more nuclear SOX9
For `O=C(O)c1nn(Cc2ccc(Cl)cc2Cl)c2ccccc12`, “nuclear SOX9 intensity” read 92.3 % of DMSO.
`Clc1ccc(OC[C@H]2CCN2)cn1`: “nuclear SOX9 intensity” 102 % of DMSO.
`CN(C)[C@@H]1C(=O)C(C(N)=O)=C(O)[C@@]2(O)C(=O)C3=C(O)c4c(O)ccc(Cl)c4[C@@](C)(O)[C@H]3C[C@@H]12` — result for “nuclear SOX9 intensity”: 104 % of DMSO.
`COc1ccc2c3c([nH]c2c1)[C@H](CC(C)C)N1C(=O)[C@H](CCC(=O)OC(C)(C)C)NC(=O)[C@@H]1C3` — result for “nuclear SOX9 intensity”: 149 % of DMSO.
For `O[C@H]1[C@H](O)[C@@H](O)CN2CC[C@H](O)[C@H]12`, “nuclear SOX9 intensity” read 96.6 % of DMSO.

A few entries again (series 4):
With `CC(Cc1ccccc1)NCCN1CCOCC1` (stereo not drawn) the IC50 was no less than 100 µM.
The IC50 of `CNCC(O)c1ccc(O)c(OC)c1` (stereo not drawn) is reported as no less than 100 µM.
The IC50 of `c1cc(N2CCNCC2)c2cc[nH]c2c1` is reported as no less than 100 µM.
`Cn1c(N2CCNCC2)cc(=O)n(C)c1=O` gave an IC50 of no less than 100 µM.
